Experimental data pooled from the literature.
Numbered parts are unrelated; each lists some results of a single study.

Study 1
Target: PABPC1L2, full length, GST fusion (mouse, UniProt A0ABA7IW68)
Method: RNAcompete
Form: RNA
Matrix: in vitro
Tested at: 20 nM
Notes: 7-mer, probes averaged, single round
Baseline: mean of 7-mers
Reading: higher = stronger binding
Construct (chain): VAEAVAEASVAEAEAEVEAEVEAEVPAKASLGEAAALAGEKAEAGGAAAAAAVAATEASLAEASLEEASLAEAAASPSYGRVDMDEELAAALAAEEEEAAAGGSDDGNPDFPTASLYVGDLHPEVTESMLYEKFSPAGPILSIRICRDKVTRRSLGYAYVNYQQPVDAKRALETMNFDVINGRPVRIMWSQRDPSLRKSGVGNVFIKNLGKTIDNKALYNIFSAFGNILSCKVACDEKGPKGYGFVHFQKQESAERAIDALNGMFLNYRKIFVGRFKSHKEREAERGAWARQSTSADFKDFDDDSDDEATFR
Oligonucleotide	7-mer Z-score
AGUGCAG	0.0388
CCGUCUG	-0.271
AGAGGUA	0.0551
GGCCAGU	-0.153
CGUAUGA	-0.161
GUCGUAA	-0.228
ACGACAC	-0.00108
UCCAGCU	-0.327
GCAGCAC	-0.0826
UCAGGAA	0.109
CUCUGUG	-0.222
GGAUGUU	-0.0718
ACCUCCU	-0.387
UCGGUAG	-0.0536
CGAGCUA	-0.0391
GUACCGU	-0.253
GGACCCG	-0.155
AUGAGCA	-0.0264
AUCGGCU	0.0152
UCGCGGG	0.0152
GGAGCUU	0.142
AUGGGGU	0.289

Study 2
Target: Interferon regulatory factor 3, full length, phosphomimetic (IRF3, Homo sapiens, UniProt Q14653, residues 1-427, S386D/S396D/S398D/S402D/T404D/S405D)
UniProt Q14653, sequence (whole entry, unmodified, looked up): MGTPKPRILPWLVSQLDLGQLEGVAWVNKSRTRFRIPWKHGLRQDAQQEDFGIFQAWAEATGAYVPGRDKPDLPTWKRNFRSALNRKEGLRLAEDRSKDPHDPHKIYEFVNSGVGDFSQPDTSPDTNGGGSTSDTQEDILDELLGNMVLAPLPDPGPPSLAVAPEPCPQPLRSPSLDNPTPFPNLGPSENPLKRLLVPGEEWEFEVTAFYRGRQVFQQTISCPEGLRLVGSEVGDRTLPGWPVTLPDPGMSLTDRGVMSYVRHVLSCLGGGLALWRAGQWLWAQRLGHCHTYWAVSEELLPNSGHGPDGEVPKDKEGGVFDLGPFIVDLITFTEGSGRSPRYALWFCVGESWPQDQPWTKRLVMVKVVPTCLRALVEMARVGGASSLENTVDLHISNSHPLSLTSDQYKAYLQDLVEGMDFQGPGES
Method: protein-binding microarray
Form: double-stranded DNA, one strand shown
Matrix: in vitro
Tested at: 2540 nM top
Notes: 60-bp whole probe
With: salmon DNA 0.4 mg/ml
Baseline: random background probes
Reading: higher = stronger binding
All sequences stand within: GCCTAGCAC … GTCTTGATTCGCTTGACGCTGCTG
Oligonucleotide	fitted relative affinity
GACGGTATCGGGTTTCGGGAGGTGCTA	2.93 z-score
GACGGTCTCCTTCTCCTGATGTGCTAG	3.92 z-score
GACGGACCGGGTTTCGGGACGTGCTAG	1.39 z-score
TCAGATATCGGGTATCGATTAGTGCTA	0.721 z-score
TTAGATATGAGTTTCGATTAGTGCTAG	2.47 z-score
TTAGGTTTCGGGTTTCCGTTAGTGCTA	5.96 z-score
TTAGATCTCAGTATCAATTAGTGCTAG	0.621 z-score
TTAGACTTCAGTTTCGATTAGTGCTAG	3.06 z-score
GACGATTTCGGGTATCTAGACGTGCTA	1.79 z-score
AACGGTCTCGGACTGGGGACGTGCTAG	-0.0328 z-score
TCAGAGCTCTGTCTGGGACTGTGCTAG	-0.69 z-score
GACGATATCAGCATCGAGACGTGCTAG	0.0367 z-score
TTAGGACTGCTTATGCTTTAGTGCTAG	-0.563 z-score
TTAGAACTGAGACTGGATGAGTGCTAG	-0.411 z-score
TTAGGTTTCTTTTATTCAAAGTGCTAG	3.61 z-score
TTATGACTGCTTCTCCTTTAGTGCTAG	0.107 z-score
TTAGGTTTCCGGTATCGGTTAGTGCTA	4.34 z-score

Study 3
Target: RNA binding protein fox-1 homolog 2, RRM domain, GST-SBP tag (RBFOX2, Homo sapiens, UniProt O43251-10, residues 100-194)
Method: RNA Bind-n-Seq
Form: RNA
Matrix: in vitro
Tested at: 365 nM
Notes: natural RNA segment, single round, ends assumed
Baseline: no-protein control
Reading: higher = stronger binding
All sequences stand within: GGGAGUUCUACAGUCCGACGAUC … UGGAAUUCUCGGGUGCCAA
Construct (chain): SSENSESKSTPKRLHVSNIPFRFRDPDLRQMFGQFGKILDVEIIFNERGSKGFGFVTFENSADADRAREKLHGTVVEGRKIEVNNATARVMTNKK
Oligonucleotide	RBNS enrichment (R)
UAUUUUGGUUGUCUGUAGCGUUGGAAGCAUUUUAUAUGAUAAAAAUAGCAAGAAAAAAUUAAAAAGUGUCAACGGUGUGCUGGUUCUAAAUUAAGAAGAUAGAACAAAGA	1.24
CUUCCCUCCUGUAAUUAUUUUCUAUUUUUGUAAACUUGUUGCAUUUUUAUAUGAUUUUCUUGACUGCACGUUGGCCAGAAGGACUGCUGGCCUGGCCUCCUUUCCGUCCG	4.83
UCAACGAUUAUAGAGAGCCUUUUCUGUCCAAGCUGUCUCAUUCCAGUCCUCUAACACCCCUUGAGACCAAUUCUGCCACUGUAUUUAGAAGCUUUGAGUUAAAGGAUUUG	0.388
CUCCCUCUGUCGGCUUUUUGCCAUCUGUGAUAUGCCAUAGGUGUGACAAUCCGAGCAGUGGAGUCAUUCAGCGGGAGCACUGCGCGCUAUCCCCUCACAUUCUCUAUGUA	0.628
CAUGUACCCUGCCGACUGACUGAGGCACACAACUUCCCUGGCUUAUCAGAAGAUUCAUUUACAGGGAGACAAGCUUGCUGCCCUAAUUCCCAGCUCUCCCCAGUGUCCAG	0.438
AUCCUACAACUCACAUUAGAGAACAUCCUGGCUUUUGAGCACUUUUCAAACAAUCAAGUUGACUCACGUGGGUCCUGAGGCCUGCAGCACGUCGGAUGCUACCCCACUAU	0.43
UUACUCCAGCUAACGCUUUGAUUCCAACACUAGCAUUUGUCACGUUAGGACGAACUGAAACGGUACAAACUGGUUAACACUACAGCGCCUUUUGCACAAAUGCUUUAGAU	0.299
CAGUCCCUUAAUUUCUUGUGUGCAACUCUGUUUUAUCCUAGAACUAAGAGAGCAUUGGUUUGUUAAAGAGCUUUCAAUGUAUAUUAAAACCUUCAAUACUCAGAAAUGAU	0.546

Study 4
Target: Histone acetyltransferase KAT6A, winged helix 1, GST fusion (KAT6A, Homo sapiens, UniProt Q92794, residues 1-85)
Method: protein binding microarray
Form: double-stranded DNA, one strand shown
Matrix: in vitro
Tested at: not given
Notes: 8-mer, flanks averaged, mean of 2 arrays, mostly near background
Baseline: not given
Reading: higher = stronger binding
Residues (chain): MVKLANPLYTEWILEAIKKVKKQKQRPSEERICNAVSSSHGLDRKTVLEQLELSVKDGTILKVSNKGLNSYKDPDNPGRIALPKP
Oligonucleotide	E-score
GTTATCGA	-0.0249
AATGAGAG	-0.22
ACCTATAA	-0.103
ACCGGATG	0.0497
AGAACGGC	0.113
GTATGCAA	-0.148
AACGATCC	-0.0265
CAAACGCG	0.245
GTCCTCTA	-0.12
TATAACGA	-0.0534
CATCGAAA	-0.079
AGCACGGG	0.222
ATTTCTTG	-0.137
GAAGCGTC	0.166
AATCTGAT	-0.108
GATAGACA	-0.221
AGCAATCC	-0.099

Study 5
Target: RING finger protein unkempt homolog, zinc fingers 1-6, GST-SBP tag (UNK, Homo sapiens, UniProt Q9C0B0, residues 30-357)
Method: RNA Bind-n-Seq
Form: RNA
Matrix: in vitro
Tested at: not given
Notes: RNA with constant flanks, ends assumed
Baseline: input RNA pool
Reading: higher = stronger binding
All sequences stand within: GGGAGUUCUACAGUCCGACGAUC … CAACAGAGGAUUGAGCAUCA
Construct (chain): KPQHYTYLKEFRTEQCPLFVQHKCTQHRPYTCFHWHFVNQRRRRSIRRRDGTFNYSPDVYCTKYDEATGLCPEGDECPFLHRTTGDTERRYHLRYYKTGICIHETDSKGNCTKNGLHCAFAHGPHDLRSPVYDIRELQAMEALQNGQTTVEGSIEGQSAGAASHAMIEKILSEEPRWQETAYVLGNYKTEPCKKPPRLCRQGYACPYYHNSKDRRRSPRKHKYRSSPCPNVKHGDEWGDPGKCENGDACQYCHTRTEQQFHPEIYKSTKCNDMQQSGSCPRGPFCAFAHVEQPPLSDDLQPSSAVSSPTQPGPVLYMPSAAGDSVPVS
Oligonucleotide	bound/input enrichment
AAAAGAUCUAAUCCUCAAGUUGGUGUAGCCUUCCCUUACAUUAAGGACGCCUAUGAGUGUUCCGUUUAUGUGCAGCUGCCUUUCAUGGAAGACUUGCGGCAAUACAUGUUUUCCUCGCUG	0.12 ratio
GAAAAAGAGCAGGAAGUGAAUGCUCGUUUACUUCAUUGUGUGAGUAAACAGAAAAUUUUACUCCGCCAGGCUAGAAGAACUCAGAAACACUUGCAGAUGCUCCUGGCAAAGCAUGUUGUU	0.127 ratio
UCCACCAGUGAUGCCUUCUGGAAAUCACCAAAUUCCUCGUCGAGGAUUUCACCCCCCGUGUUGUUUUCCAAUUUGCCUGUGAACCAUAAAAUGGAGCACAAUAAUAAUGACACUCAACAG	0.139 ratio
AAAGAUCCUAAUAUGAAAGGUGCAAUGCUUACCAACACUGGAAAAUAUGCAAUACCAACUACCGAUGCAGAAGCAUAUGCAAUUGGGAAGAAAGAGAAACCUCCCUUCUUACCAGAGGAG	0.208 ratio
ACAAUACUUGAACAUUUUAAUCUUUUGGAAUAUUGUCUUUCUUUGUUAUAACUAUUCAUUUUCCGCUUUUGUCUCCAGUGCAUGAUCUCAUAUUUUUGCUUUUAUUUUUAGUAUAAGAAC	1.97 ratio
UAUUGUGAUAUGACAAGAGACUUAACUUAUCUUGCUCUGUCUUCCACUGUACACGCUGUAUACCGGGGUCAAUGUGAUGCUGCUGGAGACGAGAAUAAACUGGACUAGAAUAGUGCAUUG	0.389 ratio
GAAGCUGCAGCACUACUAGAAAGUGGUAGUUCAGUGGGCGAUGAGACCGAUCUUGCUAAUUCCGGGGAUGUAUCUUCUGAUGGGAAAAAGGAGCCUUCAGAUAAAGCUGUGAAAAAAGAU	0.0811 ratio
UCUUGGUCUCCAAAUCCUACACCUUACUUUGAAACACCACUGGCUCCCUUUCCCAAUGGCCGUUUUGUGAAUGGCUUUAAUUCGCCAGGAUCUUAUAAAACAAAUGCUGCUGCUAUGAAU	0.476 ratio

For quick reference, copied from above (study 5):
Oligonucleotide	bound/input enrichment
AAAAGAUCUAAUCCUCAAGUUGGUGUAGCCUUCCCUUACAUUAAGGACGCCUAUGAGUGUUCCGUUUAUGUGCAGCUGCCUUUCAUGGAAGACUUGCGGCAAUACAUGUUUUCCUCGCUG	0.12 ratio
GAAAAAGAGCAGGAAGUGAAUGCUCGUUUACUUCAUUGUGUGAGUAAACAGAAAAUUUUACUCCGCCAGGCUAGAAGAACUCAGAAACACUUGCAGAUGCUCCUGGCAAAGCAUGUUGUU	0.127 ratio
UCCACCAGUGAUGCCUUCUGGAAAUCACCAAAUUCCUCGUCGAGGAUUUCACCCCCCGUGUUGUUUUCCAAUUUGCCUGUGAACCAUAAAAUGGAGCACAAUAAUAAUGACACUCAACAG	0.139 ratio
AAAGAUCCUAAUAUGAAAGGUGCAAUGCUUACCAACACUGGAAAAUAUGCAAUACCAACUACCGAUGCAGAAGCAUAUGCAAUUGGGAAGAAAGAGAAACCUCCCUUCUUACCAGAGGAG	0.208 ratio
ACAAUACUUGAACAUUUUAAUCUUUUGGAAUAUUGUCUUUCUUUGUUAUAACUAUUCAUUUUCCGCUUUUGUCUCCAGUGCAUGAUCUCAUAUUUUUGCUUUUAUUUUUAGUAUAAGAAC	1.97 ratio
UAUUGUGAUAUGACAAGAGACUUAACUUAUCUUGCUCUGUCUUCCACUGUACACGCUGUAUACCGGGGUCAAUGUGAUGCUGCUGGAGACGAGAAUAAACUGGACUAGAAUAGUGCAUUG	0.389 ratio
GAAGCUGCAGCACUACUAGAAAGUGGUAGUUCAGUGGGCGAUGAGACCGAUCUUGCUAAUUCCGGGGAUGUAUCUUCUGAUGGGAAAAAGGAGCCUUCAGAUAAAGCUGUGAAAAAAGAU	0.0811 ratio
UCUUGGUCUCCAAAUCCUACACCUUACUUUGAAACACCACUGGCUCCCUUUCCCAAUGGCCGUUUUGUGAAUGGCUUUAAUUCGCCAGGAUCUUAUAAAACAAAUGCUGCUGCUAUGAAU	0.476 ratio
